Experimental data collected from several papers.
Each line is one published result; not all experiments were run side by side. Numbers after ± are the reported error.
Sequence of UniProt P10632 (whole entry, looked up): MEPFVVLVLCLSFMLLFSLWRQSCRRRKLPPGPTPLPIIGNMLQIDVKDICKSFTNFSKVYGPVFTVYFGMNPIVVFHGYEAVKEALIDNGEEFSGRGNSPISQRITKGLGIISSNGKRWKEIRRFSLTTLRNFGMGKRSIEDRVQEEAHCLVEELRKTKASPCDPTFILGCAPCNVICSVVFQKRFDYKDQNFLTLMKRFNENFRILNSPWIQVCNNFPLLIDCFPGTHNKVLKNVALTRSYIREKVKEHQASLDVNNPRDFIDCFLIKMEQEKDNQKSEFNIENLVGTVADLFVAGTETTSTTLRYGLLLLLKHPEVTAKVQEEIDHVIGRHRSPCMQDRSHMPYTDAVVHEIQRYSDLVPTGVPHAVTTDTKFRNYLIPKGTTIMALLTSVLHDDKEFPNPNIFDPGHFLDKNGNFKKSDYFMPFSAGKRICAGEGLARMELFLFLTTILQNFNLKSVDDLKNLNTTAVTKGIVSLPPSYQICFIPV

Oc1ccc2ccccc2c1/N=N/c1ccccc1 — measured concentration (extracted rat blood QC samples; 0.2 µg/L, 2 h, room temperature, short-term stability): 0.217 µg/L
CCCC[C@@H]1NC(=O)[C@@H](NC(=O)[C@H](CCC(=O)O)NC(=O)CNC(=O)CN2CCN(CC(=O)O)CCN(CC(=O)O)CCN(CC(=O)O)CC2)CCCCNC(=O)C[C@@H](C(N)=O)NC(=O)[C@H](C(C)C)NC(=O)[C@@H]2CCCN2C(=O)[C@H](CCCNC(=N)N)NC(=O)CNC(=O)[C@H](Cc2c[nH]c3ccccc23)NC(=O)[C@H](CCCNC(=N)N)NC(=O)[C@@H](Cc2ccccc2)NC(=O)[C@H](Cc2c[nH]cn2)NC(=O)[C@H](CCC(=O)O)NC1=O [gallium-67 labelled] — tumour to lung ratio (C57 mice with B16/F1 melanoma; intravenous, 0.037 MBq/mouse, 0.5 h; reference: tumour over lung): 5.97
C=C(c1ccc(C(=O)O)c(F)c1)c1cc2c(cc1C)C(C)(C)C=CC2(C)C — blood triglycerides (Sprague-Dawley rat, male; oral, 100 mg/kg, 6 h, sesame oil vehicle): 268 ± 58 mg/dL
FC(F)(F)c1ccc2nc3c4cccnc4c4ncccc4c3nc2c1.[Cl-].[Cl-].[Ru+2].c1ccncc1.c1ccncc1.c1ccncc1.c1ccncc1 — hemolysis (red blood cells, rabbit; 20 µM, 2 h, 37 °C): 1.19 ± 0.01%
CC(C)c1cnc(-c2cc(Cl)ccc2F)cc1Nc1ccncc1C(=O)NC(CO)CO — patients with treatment-related adverse event (monotherapy, refers to: nausea; human patients; oral, dose not given, grade 3, phase I A): 0%
CC(C)[C@H](NC(=O)CNC(=O)[C@H](CCC(N)=O)NC(=O)[C@H](C)N)C(=O)O — AUC(0-last) (LC-MS/MS; human, plasma; intravenous, 10 mg/kg three times daily, day 1, first dose, 10 min infusion, geometric mean): 270 ng·h/mL
CCCC[C@H](NC(=O)CNC(=O)CNC(=O)CN1CCN(CC(=O)O)CCN(CC(=O)O)CC1)C(=O)N[C@H]1CC(=O)NCCCC[C@@H](C(N)=O)NC(=O)[C@H](Cc2c[nH]c3ccccc23)NC(=O)[C@H](CCCNC(=N)N)NC(=O)[C@@H](Cc2ccccc2)NC(=O)[C@H](Cc2c[nH]cn2)NC1=O [copper-64 labelled] — uptake ratio (female C57 mouse, B16/F1 melanoma; intravenous, 0.037 MBq, 0.5 h; reference: tumour over blood): 7.87
C=CC(=O)Nc1cc(Nc2nccc(-c3cn(C)c4ccccc34)n2)c(OCC(F)(F)F)nc1N(C)CCN(C)C — activity vs control (Cytochrome P450 2C8 (CYP2C8, Homo sapiens, UniProt P10632); enzyme activity, inhibitor; human, liver microsomes; 33.3 µM): 82%
CCCCCCCCC=CCCCCCCCC(=O)OC(COC(=O)Cc1c(C)n(C(=O)c2ccc(Cl)cc2)c2ccc(OC)cc12)COP(=O)([O-])OCC[N+](C)(C)C (stereo not shown) — hydrolytic stability (buffer; 24 h, pH 7.2, 37 °C): stable
CC1C(c2c(F)ccc(F)c2F)CC(N[14C](=O)c2cnc3c(c2)CC2(C3)C(=O)Nc3ncccc32)C(=O)N1CC(F)(F)F (stereo not shown) — last time with quantifiable radioactivity (refers to: total radioactivity; human, plasma; oral, dose not given, single dose, 14C-labelled, LLOQ 73 dpm/mL): ≤ 48 h
CCCC[C@H](NC(=O)CNC(=O)CNC(=O)CN1CCN(CC(=O)O)CCN(CC(=O)O)CC1)C(=O)N[C@H]1CC(=O)NCCCC[C@@H](C(N)=O)NC(=O)[C@H](Cc2c[nH]c3ccccc23)NC(=O)[C@H](CCCNC(=N)N)NC(=O)[C@@H](Cc2ccccc2)NC(=O)[C@H](Cc2c[nH]cn2)NC1=O [gallium-67 labelled] — tumour to tissue ratio (female C57 mice, B16/F1 melanoma; intravenous, 0.037 MBq, 24 h; reference: tumour over liver): 15.8
Cc1ccc(OCC(=O)N(Cc2cccs2)c2ccn[nH]2)cc1 — Tmax (male beagle dog, plasma; intravenous, 1.0 mg/kg): 7.8 min
O=C(O)CN1CCCN2CCN(CC1)CCN(CC(=O)O)CC2 [copper-64 labelled] — blood uptake (Lewis rat, male, juvenile, blood; intravenous, 100 µCi, 24 h): 0.01 ± 0.002 %ID/g
CN[C@@H](CCOc1cccc2ccccc12)c1ccccc1 — median Tmax (healthy male humans, plasma; oral, 60 mg of dapoxetine): 120 min
COC(=O)C1C(c2nc3ncccc3[nH]2)=Cc2cc3c(cc2C1c1cc(OC)c(OC)c(OC)c1)OCO3 (stereo not shown) — CC50 (Alamar Blue; splenocytes, mouse, uninfected ex vivo splenic explants; 48 h): 40.7 ± 6.5 µM
NS(=O)(=O)Nc1ncnc(OCCOc2ncc(Br)cn2)c1-c1ccc(Br)cc1 — Km (M6 formation; female Beagle dog, liver microsomes; 500 mg/kg daily for 4 weeks): 6.7 ± 2.2 µM
CC(C)(C)N/C=C(/c1ccccc1)S(=O)(=O)O — metabolite AUC ratio (Swiss Webster mouse, female, plasma; AUC(0-8h), metabolite peak areas; reference: PO over IV, dose-normalised): 1.49
CC(C)[C@H](NC(=O)CNC(=O)[C@H](CCC(N)=O)NC(=O)[C@H](C)N)C(=O)O — AUC(0-t) (healthy volunteers, LPS endotoxaemia, plasma; intravenous, 90 mg/kg/h, 2 h infusion, geometric mean, together with: LPS 2 ng/kg): 19700 ng·h/mL
COc1cc(CNC(=O)C[C@H](C)CCC=C(C)C)ccc1OCc1cn(-c2ccccc2[N+](=O)[O-])nn1 — growth percent (Hs-578T breast cancer cells; SRB; 10 µM, 48 h): 73.7%
O=C(Nc1nccs1)C(c1cc(F)ccc1O)N1Cc2ccccc2C1=O (stereo not shown) — amount recovered (FVB/NRj mouse, female, small intestine with contents; oral, 20 mg/kg, 4 h; reference: dose): ~1.74%
N=C(N)NCCC[C@@H]1NC(=O)[C@H](Cc2c[nH]c3ccccc23)NC(=O)[C@@H](CC2CCCCC2)NC(=O)[C@@H]2CCCN2C(=O)[C@@H](NC(=O)CCc2ccccc2)CCCNC1=O — elimination half-life (C57BL/6J mice, brain; intravenous, 1 mg/kg): 35.9 min
[64Cu+2].c1cnc(CNCc2ccc(CN3CCCN4CCNCCCN(CC4)CC3)cc2)nc1 — tissue uptake (CXCR4; NOD/SCID mouse, U87 and U87-stb-CXCR4 xenografts, blood; iv, 90 min, ex vivo): 1.42 ± 0.21 %ID/g
CCN(CC)CCN=S(=O)(c1ccccc1)N1CCCCC1 (stereo not shown) — recovery (HCl buffer; 24 h, pH 1, hydrolytic stability): 100%
CC(C)(Sc1cc[n+]([O-])cc1-c1ccc(C#N)c2ccccc12)C(=O)OC1OC(C(=O)O)C(O)C(O)C1O (stereo not shown) — renal clearance (human, urine; oral, 15 mg, 72 h, moderate renal impairment): 117 mL/min
CN1CC[C@H](c2c(O)cc(O)c3c(=O)cc(/C=C/c4c(Cl)cccc4Cl)oc23)[C@H](O)C1 — AUC(0-t) (dissolution, USP paddle apparatus; water, 0.25% SLS; concentration not given, sink conditions): 87400 ± 5840 ng·h/mL
CC(C)(O)c1ncc([S@](N)(=O)=NC(=O)Nc2c3c(cc4c2CCC4)CCC3)s1 — lag time (healthy human volunteers, plasma; oral, 25 mg twice daily, fed, enteric-coated tablet): 0.75 h
C=CC(=O)Nc1cc(Nc2nccc(-c3cn(C)c4ccccc34)n2)c(OC)cc1N(C)CCN(C)C — steady-state trough concentration (UHPLC-MS/MS; human, plasma; oral, 80 mg daily): 205 ng/mL
Oc1c(Br)cc(Br)c2nc3cc(Cc4ccccc4)ccc3nc12 — hemolysis (human red blood cells; 200 µM, 1 h, pH 7.2, 37 °C): ≤ 1%
CC[C@H](C)[C@H](NC(=O)[C@H](N)Cc1ccc(O)cc1)C(=O)N[C@H]1CSSC[C@@H](C(=O)N(C)[C@H](C(N)=O)[C@@H](C)CC)NC(=O)[C@H](CCCNC(=N)N)NC(=O)[C@H](Cc2c[nH]cn2)NC(=O)[C@H](C)NC(=O)CN(C)C(=O)[C@H](Cc2c[nH]c3ccccc23)NC(=O)[C@H](CC(=O)O)NC(=O)[C@H](CCC(N)=O)NC(=O)[C@H](Cc2cn(C)c3ccccc23)NC(=O)[C@H](C(C)C)NC1=O — recovery (UPLC-ESI-MS; human plasma; 0.18 µg/mL, 48 h, 25 °C, bench-top after SPE): 99.3 ± 2.3%
COc1cc(C)c(Cc2ccc(O)cc2)cc1[C@@H]1S[C@H](CO)[C@@H](O)[C@H](O)[C@H]1O — AUC(0-τ) (Japanese T2DM patients, plasma; 0.5 mg luseogliflozin, day 7, once daily): 22.8 ± 3.03 ng·h/mL
COc1ccc(/C=C/c2ccc(-c3ccc(C)cn3)nc2)cc1 — radiative decay rate constant (TCSPC; DMSO): 0.56 ns⁻¹
OC[C@H]1O[C@@H](Oc2c[nH]c3ccccc23)[C@H](O)[C@@H](O)[C@@H]1O — methotrexate elimination (inhibitor; rat, serum; oral, 20.0 and 40.0 mg/kg, together with: oral methotrexate 5.0 mg/kg): inhibited
CC(C)[C@H](NC(=O)[C@@H]1CCCN1C(=O)[C@H](CCCNC(=N)N)NC(=O)[C@H](CS)NC(=O)[C@H](Cc1c[nH]c2ccccc12)NC(=O)[C@H](CCCNC(=N)N)NC(=O)[C@@H](Cc1ccccc1)NC(=O)[C@H](Cc1c[nH]cn1)NC(=O)[C@H](CCC(=O)O)NC(=O)[C@H](CS)NC(=O)[C@H](CS)NC(=O)[C@@H]1CC(=O)N[C@@H](CCCNC(=N)N)C(=O)NCC(=O)N[C@@H](CC(=O)O)C(=O)N[C@H](Cc2ccc(O)cc2)C(=O)N1)C(N)=O [technetium-99m labelled] — urinary excretion (female mice, B16/F1 melanoma, urine; intravenous, dose not given, 2 h, together with: 10 µg NDP-MSH co-injected): 84.1 ± 1.64%
COc1cc(CNC(=O)C[C@H](C)CCC=C(C)C)ccc1OCc1cn(-c2ccc(Cl)c(Cl)c2)nn1 — growth percent (EKVX; SRB; 10 µM, 48 h): 77.2%
CCCC[C@H](NC(=O)CN1CCC(NC(=O)CN2CCN(CC(=O)O)CCN(CC(=O)O)CCN(CC(=O)O)CC2)CC1)C(=O)N[C@H]1CC(=O)NCCCC[C@@H](C(N)=O)NC(=O)[C@H](Cc2c[nH]c3ccccc23)NC(=O)[C@H](CCCNC(=N)N)NC(=O)[C@@H](Cc2ccccc2)NC(=O)[C@H](Cc2c[nH]cn2)NC1=O [gallium-68 labelled] — intact compound (radio-HPLC; mouse, plasma; intravenous, 8 to 12 MBq, 5 min post injection): > 96%
[11CH3]c1ccc2nc(C3CCC3)n(-c3ccc4[nH]ncc4c3)c2n1 — absorbed dose (extrapolated from mouse; human male, Upper large intestine wall): 5.2 µSv/MBq
CN(C)C(=O)c1ccc(COC(=O)N(Cc2cccc(CN3CCCCC3)c2)[c-]2cccc2)cc1.[Fe+2].c1cc[cH-]c1 — E1/2 (cyclic and differential pulse voltammetry; acetonitrile; 23 °C; reference: ferrocene/ferrocenium): -35 mV
COC(=O)c1ccc(-c2cn(Cc3cc(Cl)ccc3O[11CH3])nn2)cc1 — distribution volume (PET, one-tissue compartment model; rhesus monkey, brain Amygdala; dose not given): 0.559 mL/cm³
Cc1cc(C(=O)N[C@@H](CO)CC(C)C)ccc1CO — metabolite peak area (LC-MS; human liver microsomes; 10 µM of parent drug, 20 min, pH 7.4, together with: NADPH; reference: parent drug at time zero): 0.1%
[64Cu+2].c1ccc(CNCc2ccc(CN3CCCN4CCNCCCN(CC4)CC3)cc2)nc1 — tissue uptake (CXCR4; NOD/SCID mouse, U87 and U87-stb-CXCR4 xenografts, bladder; iv, 60 min, ex vivo): 4.4 ± 2.86 %ID/g
